Results gathered from unrelated publications.
Protocols differ between the studies behind these lines. Numbers after ± are the reported error. Values after ≈ are worked out from the molar mass of the structure shown.

Compound	organism	test	test system	conditions	scale	measurement	result
O=C(NC1CCCCC1)c1nc(Cl)c2cccnc2c1O	Human betaherpesvirus 5	viral replication, inhibitor	HFF	10 µM		inhibition	5.9%
O=P(O)(OCc1ccccc1)Oc1c2c(c(OP(=O)(O)OCc3ccccc3)c3c1C1CC3c3cc4c(cc31)C1CC4c3ccccc31)C1CC2c2cc3c(cc21)C1CC3c2ccccc21	measles virus	viral infection, flow cytometry	A549, vaccine strain GFP	2 days, virus pre-incubated 30 min 37 °C		IC50	2.7 µM
CC[C@H](C)[C@H](NC(=O)[C@H](CCCCN)NC(=O)[C@H](CCCCN)NC(=O)[C@H](CC(C)C)NC(=O)[C@H](CCCCN)NC(=O)[C@H](CCC(=O)O)NC(=O)[C@H](CCCCN)NC(=O)[C@@H](NC(=O)[C@H](CCCCN)NC(=O)[C@H](CC(N)=O)NC(=O)[C@H](CCCNC(=N)N)NC(=O)[C@H](Cc1ccccc1)NC(=O)[C@H](CCCCN)NC(=O)[C@H](CCCNC(=N)N)NC(=O)[C@H](CC(C)C)NC(=O)[C@H](CCCNC(=N)N)NC(=O)[C@H](CCCCN)NC(=O)[C@H](CCCNC(=N)N)NC(=O)[C@H](CC(C)C)NC(=O)CN)[C@@H](C)CC)C(=O)NCC(=O)N[C@@H](CCC(N)=O)C(=O)N[C@@H](CCCCN)C(=O)N[C@H](C(=O)N[C@@H](CCC(N)=O)C(=O)NCC(=O)N[C@@H](Cc1ccccc1)C(=O)N[C@H](C(=O)N1CCC[C@H]1C(=O)N[C@@H](CCCCN)C(=O)N[C@@H](CC(C)C)C(=O)N[C@@H](C)C(=O)N1CCC[C@H]1C(=O)N[C@@H](CCCNC(=N)N)C(=O)N[C@H](C(=O)N[C@@H](CC(=O)O)C(=O)N[C@@H](Cc1ccc(O)cc1)C(=O)O)[C@@H](C)O)C(C)C)[C@@H](C)CC	Salmonella	inhibition zone	DZ.3G	LB agar, overnight		lethal concentration	1.94 µM
CCCCCCCCCCCCCC(=O)N[C@@H](CCCNC(=N)N)C(=O)N[C@@H](CCCNC(=N)N)C(=O)N[C@@H](CCCNC(=N)N)C(N)=O	Staphylococcus epidermidis and Staphylococcus aureus		clinical strains			MIC range	1.56 to 3.1 µM (≈ 1.09 to 2.16 µg/mL)
CC(=NNC(=N)N)c1nnn(-c2ccc(C#CC3(O)CCCCC3)cc2)c1C	Neisseria gonorrhoeae		WI-38, 181		relative to: WI-38 IC50 over MIC	selectivity index	2.19
CC[C@H](C)[C@H](NC(=O)[C@H](CO)NC(=O)[C@H](CO)NC(=O)[C@H](Cc1ccccc1)NC(=O)CN)C(=O)N[C@@H](Cc1ccccc1)C(=O)N[C@@H](CCCNC(=N)N)C(N)=O	Escherichia coli		ATCC 8739	added: 8 mM ZnCl2		MBC	> 128 µM
COc1ccc(C2=[N+]([O-])c3ccccc3N3CCN=C23)cc1	Fusobacterium nucleatum	microbial growth	ATCC25586			MIC	≤ 0.06 µg/mL
CC[C@H](C)[C@H](NC(=O)[C@H](CCCCN)NC(=O)[C@H](CCCCN)NC(=O)[C@H](CC(C)C)NC(=O)[C@H](CCCCN)NC(=O)[C@H](CCC(=O)O)NC(=O)[C@H](CCCCN)NC(=O)[C@@H](NC(=O)[C@H](CCCCN)NC(=O)[C@H](CC(N)=O)NC(=O)[C@H](CCCNC(=N)N)NC(=O)[C@H](Cc1ccccc1)NC(=O)[C@H](CCCCN)NC(=O)[C@H](CCCNC(=N)N)NC(=O)[C@H](CC(C)C)NC(=O)[C@H](CCCNC(=N)N)NC(=O)[C@H](CCCCN)NC(=O)[C@H](CCCNC(=N)N)NC(=O)[C@H](CC(C)C)NC(=O)[C@@H](N)CC(C)C)[C@@H](C)CC)C(=O)NCC(=O)N[C@@H](CCC(N)=O)C(=O)N[C@@H](CCCCN)C(=O)N[C@H](C(=O)N[C@@H](CCC(N)=O)C(=O)NCC(=O)N[C@@H](Cc1ccccc1)C(=O)N[C@H](C(=O)N1CCC[C@H]1C(=O)N[C@@H](CCCCN)C(=O)N[C@@H](CC(C)C)C(=O)N[C@H](C(=O)N1CCC[C@H]1C(=O)N[C@@H](CCCNC(=N)N)C(=O)N[C@H](C(=O)N[C@@H](CCC(=O)O)C(=O)N[C@@H](CO)C(=O)O)[C@@H](C)O)C(C)C)C(C)C)[C@@H](C)CC	Salmonella	inhibition zone	ZQ.17N	LB agar, overnight		lethal concentration	1.95 µM
CC[C@@H](C)[C@@H](NC(=O)[C@@H](C)NC(=O)[C@@H](CCCCN)NC(=O)[C@@H](CC(C)C)NC(=O)[C@@H](CC(C)C)NC(=O)[C@H](NC(=O)[C@@H](CCCCN)NC(=O)[C@@H](CC(C)C)NC(=O)[C@@H](CCCCN)NC(=O)[C@@H](CCCCN)NC(=O)[C@@H](CCCCN)NC(=O)[C@@H](CCCCN)NC(=O)[C@@H](C)NC(=O)[C@@H](CCCCN)NC(=O)[C@@H](CO)NC(=O)[C@@H](Cc1ccccc1)NC(=O)[C@H](NC(=O)[C@@H](CCCCN)NC(=O)[C@@H](CC(C)C)NC(=O)[C@@H](Cc1ccccc1)NC(=O)[C@@H](CO)NC(=O)[C@@H](CCCCN)NC(=O)[C@@H](Cc1c[nH]c2ccccc12)NC(=O)[C@@H](CCCCN)NC(C)=O)[C@H](C)O)[C@H](C)O)C(=O)N[C@H](CO)C(=O)N[C@H](CCCCN)C(N)=O	Acinetobacter baumannii		11 isolates		relative to: HC50 over geometric mean MIC	therapeutic index	439
CN[C@@H]1[C@H](O)[C@H](NC)[C@H]2O[C@]3(O)[C@H](O[C@@H]2[C@H]1O)O[C@H](C)C[C@]3(O)CNCc1ccc(OC(F)(F)F)cc1	Neisseria gonorrhoeae		ATCC 49226	40 µg per disc		inhibition zone diameter	8.2 to 8.8 mm
CO.[Ag+].[S-]c1ncccn1.c1ccc(P(c2ccccc2)c2ccccc2)cc1.c1ccc(P(c2ccccc2)c2ccccc2)cc1	Candida albicans		MTCC 227, DMSO	0.1 mL of 50 mg/mL in 8 mm well, 18 to 24 h		inhibition zone diameter	13 mm
CC[C@@H](C)[C@@H](NC(=O)[C@@H](C)NC(=O)[C@@H](CCCCN)NC(=O)[C@@H](CC(C)C)NC(=O)[C@@H](C)NC(=O)[C@H](NC(=O)[C@@H](Cc1c[nH]cn1)NC(=O)[C@@H](CC(C)C)NC(=O)[C@H](NC(=O)[C@H](NC(=O)[C@@H](CCCCN)NC(=O)[C@@H](CCCCN)NC(=O)[C@@H](C)NC(=O)[C@@H](CO)NC(=O)[C@@H](CCCCN)NC(=O)[C@@H](Cc1ccccc1)NC(=O)[C@H](NC(=O)[C@@H](CCCCN)NC(=O)[C@@H](CC(C)C)NC(=O)[C@@H](Cc1ccccc1)NC(=O)[C@@H](CO)NC(=O)[C@@H](CCCCN)NC(=O)[C@@H](Cc1c[nH]c2ccccc12)NC(=O)[C@@H](CCCCN)NC(C)=O)[C@H](C)O)[C@H](C)O)C(C)C)[C@H](C)O)C(=O)N[C@H](CO)C(=O)N[C@H](CO)C(N)=O	Rhizopus oryzae		AZN 8892	48 h, 30 °C		MIC90	25 µg/mL (≈ 8.36 µM)
CN(C)CCNC(=O)/C=C/[C@H](Cc1ccccc1)Nc1ccnc2cc(Cl)ccc12	Plasmodium berghei		NAT atovaquone-resistant, ICR mouse infected	10 mg/kg, 0 days post infection before treatment		body weight	27.7 ± 1.97 g
CC[C@H](C)[C@H](NC(=O)[C@H](CCCCN)NC(=O)[C@H](CCCCN)NC(=O)[C@H](CC(C)C)NC(=O)[C@H](CCCCN)NC(=O)[C@H](CCC(=O)O)NC(=O)[C@H](CCCCN)NC(=O)[C@@H](NC(=O)[C@H](CCCCN)NC(=O)[C@H](CC(N)=O)NC(=O)[C@H](CCCNC(=N)N)NC(=O)[C@H](Cc1ccccc1)NC(=O)[C@H](CCCCN)NC(=O)[C@H](CCCNC(=N)N)NC(=O)[C@H](CC(C)C)NC(=O)[C@H](CCCNC(=N)N)NC(=O)[C@H](CCCCN)NC(=O)[C@H](CCCNC(=N)N)NC(=O)[C@@H](N)CC(C)C)[C@@H](C)CC)C(=O)NCC(=O)N[C@@H](CCC(N)=O)C(=O)N[C@@H](CCCCN)C(=O)N[C@H](C(=O)N[C@@H](CCC(N)=O)C(=O)NCC(=O)N[C@@H](Cc1ccccc1)C(=O)N[C@H](C(=O)N1CCC[C@H]1C(=O)N[C@@H](CCCCN)C(=O)N[C@@H](CC(C)C)C(=O)O)C(C)C)[C@@H](C)CC	Salmonella	inhibition zone	ZQ.17N	LB agar, overnight		lethal concentration	3.54 µM
COc1ccc(N2C(=O)C=CC2=O)cc1	Candida albicans	qRT-PCR, measured: TEC1		1 µg/mL, 12 h	relative to: untreated	mRNA level	0.36 fold

Excerpt of the above:
Compound	organism	test	test system	conditions	scale	measurement	result
CC(=NNC(=N)N)c1nnn(-c2ccc(C#CC3(O)CCCCC3)cc2)c1C	Neisseria gonorrhoeae		WI-38, 181		relative to: WI-38 IC50 over MIC	selectivity index	2.19
CC[C@H](C)[C@H](NC(=O)[C@H](CCCCN)NC(=O)[C@H](CCCCN)NC(=O)[C@H](CC(C)C)NC(=O)[C@H](CCCCN)NC(=O)[C@H](CCC(=O)O)NC(=O)[C@H](CCCCN)NC(=O)[C@@H](NC(=O)[C@H](CCCCN)NC(=O)[C@H](CC(N)=O)NC(=O)[C@H](CCCNC(=N)N)NC(=O)[C@H](Cc1ccccc1)NC(=O)[C@H](CCCCN)NC(=O)[C@H](CCCNC(=N)N)NC(=O)[C@H](CC(C)C)NC(=O)[C@H](CCCNC(=N)N)NC(=O)[C@H](CCCCN)NC(=O)[C@H](CCCNC(=N)N)NC(=O)[C@@H](N)CC(C)C)[C@@H](C)CC)C(=O)NCC(=O)N[C@@H](CCC(N)=O)C(=O)N[C@@H](CCCCN)C(=O)N[C@H](C(=O)N[C@@H](CCC(N)=O)C(=O)NCC(=O)N[C@@H](Cc1ccccc1)C(=O)N[C@H](C(=O)N1CCC[C@H]1C(=O)N[C@@H](CCCCN)C(=O)N[C@@H](CC(C)C)C(=O)O)C(C)C)[C@@H](C)CC	Salmonella	inhibition zone	ZQ.17N	LB agar, overnight		lethal concentration	3.54 µM
